Experimental data gathered from unrelated publications.
Compare with care: the assays were run in different laboratories. “And” joins repeats or separate records; there may be more than shown. ± marks the error that the study gave.

CC(=O)NCSC[C@H](NC(=O)[C@@H]1CCCN1C(=O)[C@H](C)NC(=O)[C@@H](NC(=O)CNC(=O)[C@@H](NC(=O)[C@H](Cc1c[nH]c2ccccc12)NC(=O)[C@H](C)NC(=O)CNC(=O)[C@H](CO)NC(=O)[C@H](C)NC(=O)[C@@H]1CCCN1C(=O)[C@H](Cc1c[nH]c2ccccc12)NC(=O)[C@H](C)NC(=O)[C@H](C)NC(=O)[C@@H](N)Cc1ccc(O)cc1)[C@@H](C)O)[C@@H](C)O)C(=O)N[C@@H](CO)C(=O)N[C@@H](C)C(=O)NCC(=O)N[C@H](C(=O)NCCOCCOCCOCCOCCOCCOCCOCCOCCOCCOCCOCCOCCC(=O)N[C@@H](CS)C(N)=O)[C@@H](C)O has a selectivity ratio of 3.7 ± 0.7 (H157 lung squamous carcinoma; cell binding, phage binding, refers to: output/input phage; 10 min, 37 °C; baseline: control phage).
CC(C)CC(O)(CC(C)C)c1cn(C(=O)N2CCCC2)nn1 gave a protein level of 1.14 and 1.25 (mouse T-cells; SILAC proteomics, refers to: Tmsb4x; 1 nM, 6 h, single peptides, unit not given; baseline: DMSO).
O=C(C[Se]C(=O)c1cc2ccccc2o1)Nc1cccc(C(F)(F)F)c1 gave a CC50 of 6.39 µM (NCI60 prostate subpanel (PC-3, DU-145); cytotoxicity, inhibitor; five-dose).
The phototherapeutic index of [Cl-].[Cl-].[Ru+2].c1ccc(-c2ccccn2)nc1.c1ccc(-c2ccccn2)nc1.c1ccc2cc3nc4c5cccnc5c5ncccc5c4nc3cc2c1 is reported as 791 (SK-MEL-28; resazurin; normoxia, with: visible light; baseline: dark EC50 over light EC50).
CC[C@H](C)[C@H](NC(=O)[C@H](C)NC(=O)CNC(=O)[C@H](Cc1ccccc1)NC(=O)[C@H](CC(N)=O)NC(=O)[C@H](CC(N)=O)NC(=O)[C@H](CO)NC(=O)[C@H](CO)NC(=O)[C@H](Cc1c[nH]cn1)NC(=O)[C@@H](NC(=O)[C@H](CC(C)C)NC(=O)[C@H](Cc1ccccc1)NC(=O)[C@H](CC(N)=O)NC(=O)[C@H](C)NC(=O)[C@H](CC(C)C)NC(=O)[C@H](CCCNC(=N)N)NC(=O)[C@H](CCC(N)=O)NC(=O)[C@@H](NC(=O)[C@H](C)NC(=O)[C@@H]1CSSC[C@H](NC(=O)[C@@H](N)CCCCN)C(=O)N[C@@H](CC(N)=O)C(=O)N[C@@H]([C@@H](C)O)C(=O)N[C@@H](C)C(=O)N[C@@H]([C@@H](C)O)C(=O)N1)[C@@H](C)O)C(C)C)C(=O)N[C@@H](CC(C)C)C(=O)N[C@@H](CO)C(=O)N[C@@H](CO)C(=O)N[C@H](C(=O)N[C@@H](CC(N)=O)C(=O)N[C@H](C(=O)NCC(=O)N[C@@H](CO)C(=O)N[C@@H](CC(N)=O)C(=O)N[C@H](C(=O)N[C@@H](Cc1ccc(O)cc1)C(N)=O)[C@@H](C)O)C(C)C)[C@@H](C)O — result for “Pearson colocalization coefficient”: > 0.6 (RIN-m5F; colocalization microscopy, refers to: ubiquitin (P4D1); 10 µM, 24 h).
O=C(C[Se]C(=O)c1cc2ccccc2[nH]1)Nc1cccc(C(F)(F)F)c1 has a CC50 of 6.16 µM (NCI60 renal subpanel; cytotoxicity, inhibitor; five-dose).
CC(C)(C)C(=O)OCOP(=O)(OCOC(=O)C(C)(C)C)C1CCCN(O)C1=O (centres unmarked) gave a log GI50 of -6.36 log M (SF-268).
The colony survival of COc1ccccc1-c1ccncc1C(=O)Nc1nnc(OCc2ccc(Cl)cc2)s1 is reported as 26.7% (HCT116 BRCA2-/-; 8 µM, average of 3 runs; baseline: untreated).
For Cc1c(Cl)cccc1Nc1ccccc1C(=O)[Se]CC(=O)Nc1cccc(C(F)(F)F)c1, the CC50 was 8.33 µM (NCI60 ovarian subpanel; cytotoxicity, inhibitor; five-dose).
The EC50 of Cc1cccc(-c2cccc(C)n2)n1.Cc1cccc(-c2cccc(C)n2)n1.F[P-](F)(F)(F)(F)F.F[P-](F)(F)(F)(F)F.[Ru+2].c1ccc2c(-c3nc4c5cccnc5c5ncccc5c4[nH]3)cccc2c1 is reported as 2.43 ± 0.06 µM (SK-MEL-28; cell viability; normoxia, with: blue light 453 nm, 100 J/cm2).
With Cc1cc(Oc2nc(N3CC[C@@H](c4ccncc4)C3)ncc2F)[nH]n1 the IC50 was 24.5 µM (MINO; cell proliferation; blood cancer).
The selectivity ratio of CC(C)[C@H](NC(=O)[C@H](CCCNC(=N)N)NC(=O)[C@@H]1CCCN1C(=O)[C@@H](NC(=O)[C@H](C)NC(=O)[C@H](Cc1ccc(O)cc1)NC(=O)[C@H](CCC(N)=O)NC(=O)[C@H](CCCCN)NC(=O)[C@H](CCCNC(=N)N)NC(=O)[C@@H]1CCCN1C(=O)[C@H](CCC(=O)O)NC(=O)[C@@H](NC(=O)[C@H](C)N)[C@@H](C)O)[C@@H](C)O)C(=O)N[C@@H](Cc1ccccc1)C(=O)N[C@@H](Cc1c[nH]c2ccccc12)C(=O)N[C@H](C(=O)N[C@@H](CC(=O)O)C(=O)N[C@@H](C)C(=O)N1CCC[C@H]1C(=O)NCC(=O)NCCOCCOCCOCCOCCOCCOCCOCCOCCOCCOCCOCCOCCC(=O)N[C@@H](CS)C(N)=O)[C@@H](C)O is reported as 0.59 ± 0.42 (MDA-MB-468 breast cancer; cell binding, phage binding, refers to: output/input phage; 10 min, 37 °C; baseline: control phage).
O=C(C[Se]C(=O)c1ccco1)Nc1cccc(C(F)(F)F)c1 gave a CC50 of 44.6 µM (NCI60 renal subpanel; cytotoxicity, inhibitor; five-dose).
CSCC[C@H](NC(=O)[C@@H](NC(=O)[C@H](CCC(N)=O)NC(=O)[C@H](CO)NC(=O)[C@@H](N)C(C)C)[C@@H](C)O)C(=O)N[C@@H](CCCNC(=N)N)C(=O)N[C@@H](CCC(N)=O)C(=O)N[C@H](C(=O)N[C@@H](C)C(=O)N[C@H](C(=O)N1CCC[C@H]1C(=O)N[C@@H](CC(C)C)C(=O)N[C@@H](CC(C)C)C(=O)N[C@@H](Cc1c[nH]c2ccccc12)C(=O)N[C@@H](Cc1ccccc1)C(=O)N[C@@H](Cc1c[nH]c2ccccc12)C(=O)N[C@H](C(=O)NCC(=O)N[C@@H](CO)C(=O)N[C@@H](CC(C)C)C(=O)NCCOCCOCCOCCOCCOCCOCCOCCOCCOCCOCCOCCOCCC(=O)N[C@@H](CS)C(N)=O)[C@@H](C)O)C(C)C)[C@@H](C)O gave a selectivity ratio of 0.79 ± 0.46 (H2347 lung adenocarcinoma; cell binding, phage binding, refers to: output/input phage; 10 min, 37 °C; baseline: control phage).
For [Cl-].[Cl-].[Ru+2].c1ccc(-c2ccccn2)nc1.c1ccc(-c2ccccn2)nc1.c1ccc2cc3nc4c5cccnc5c5ncccc5c4nc3cc2c1, the EC50 was 174 ± 8 µM (SK-MEL-28; cell viability; 1% O2, with: blue light 453 nm, 100 J/cm2).
O=C(C[Se]C(=O)c1ccccc1)Nc1cccc(C(F)(F)F)c1 has a GI50 of 2.39 µM (NCI60 ovarian subpanel; cell growth, inhibitor; five-dose).
NC(=O)N/N=C/c1ccc(OCc2cccc(F)c2)cc1: “catalase activity (OD450)” 0.073 a.u. (IMR-32; 500 µg/mL, 24 h; higher = more activity).
O=C(CNC(=O)[C@H](Cc1ccccc1)NC(=O)[C@H](Cc1ccccc1)NC(=O)Cc1ccc2ccccc2c1)N[C@@H](Cc1ccc(OP(=O)(O)O)cc1)C(=O)O gave a GI50 of 472 µM (HS5; cell growth or viability, MTT).
With CC(C)C[C@H](NC(=O)[C@H](CC(=O)O)NC(=O)CNC(=O)[C@@H](N)CCCNC(=N)N)C(=O)N[C@@H](C)C(=O)N[C@H](C(=O)N[C@@H](CC(C)C)C(=O)N[C@@H](CCCNC(=N)N)C(=O)N[C@@H](CCC(N)=O)C(=O)N[C@@H](CC(C)C)C(=O)N[C@@H](C)C(=O)N[C@@H](CCC(N)=O)C(=O)N[C@@H](CCC(=O)O)C(=O)N[C@@H](CC(=O)O)C(=O)NCC(=O)N[C@H](C(=O)N[C@H](C(=O)NCC(=O)N[C@H](C(=O)N[C@@H](CCCNC(=N)N)C(=O)NCCOCCOCCOCCOCCOCCOCCOCCOCCOCCOCCOCCOCCC(=O)N[C@@H](CS)C(N)=O)C(C)C)C(C)C)C(C)C)[C@@H](C)O the selectivity ratio was 0.57 ± 0.038 (T47D breast cancer; cell binding, phage binding, refers to: output/input phage; 10 min, 37 °C; baseline: control phage).
The inhibition of CCOC(=O)C1(Cc2ccccc2)Oc2cc(F)ccc2N(Cc2ccccc2)C1=O (centres unmarked) is reported as 0.24 ± 0.45% (HEK293T; cytotoxicity, CCK-8; 12.5 µM, 72 h).
O=C(O)c1ccc(-c2nc(-c3ccccc3Cl)c3sccn23)cc1 — result for “mean fluorescence intensity”: 34700 a.u. (HEL; flow cytometry, refers to: surface CD41; 0.1 mM; higher = more expression).
C=CCN1C(=O)C(CC=C)(C(=O)OCC)Oc2cc(F)ccc21 (centres unmarked) gave an inhibition of 1.11 ± 0.3% (HEK293T; cytotoxicity, CCK-8; 100 µM, 72 h).
For O=C(C[Se]C(=O)c1cccs1)Nc1cccc(C(F)(F)F)c1, the GI50 was 1.62 µM (NCI60 NSCLC subpanel; NCI60 five-dose screen).
For CC(C)Cc1ccc(C(C)C(=O)[O-])cc1.CC(C)Cc1ccc(C(C)C(=O)[O-])cc1.[Cu+2].c1ccncc1.c1ccncc1 (centres unmarked), the GI50 was 88 µM (PC-3; cell growth or viability, MTT; 48 h).
For C#CCN1C(=O)C(CC#C)(C(=O)OCC)Oc2ccccc21 (centres unmarked), the inhibition was 1 ± 0.28% (HEK293T; cytotoxicity, CCK-8; 100 µM, 72 h).
O=C1C(Cl)=C(Cl)C(=O)c2ccccc21 has a selectivity index of 31.8 (MOLT-3; XTT; baseline: IC50 MRC-5 over IC50 MOLT-3).

A few entries again:
The inhibition of CCOC(=O)C1(Cc2ccccc2)Oc2cc(F)ccc2N(Cc2ccccc2)C1=O (centres unmarked) is reported as 0.24 ± 0.45% (HEK293T; cytotoxicity, CCK-8; 12.5 µM, 72 h).
O=C(C[Se]C(=O)c1cc2ccccc2[nH]1)Nc1cccc(C(F)(F)F)c1 has a CC50 of 6.16 µM (NCI60 renal subpanel; cytotoxicity, inhibitor; five-dose).
